Results from different studies.
Lines come from different studies, so protocols differ. Several values in a cell are separate wells, animals, samples, runs or records. ± marks the error that the study gave.
Oprd1: Delta-type opioid receptor (Oprd1, Rattus norvegicus, UniProt P33533)
Sequence of UniProt P33533 (whole entry, looked up): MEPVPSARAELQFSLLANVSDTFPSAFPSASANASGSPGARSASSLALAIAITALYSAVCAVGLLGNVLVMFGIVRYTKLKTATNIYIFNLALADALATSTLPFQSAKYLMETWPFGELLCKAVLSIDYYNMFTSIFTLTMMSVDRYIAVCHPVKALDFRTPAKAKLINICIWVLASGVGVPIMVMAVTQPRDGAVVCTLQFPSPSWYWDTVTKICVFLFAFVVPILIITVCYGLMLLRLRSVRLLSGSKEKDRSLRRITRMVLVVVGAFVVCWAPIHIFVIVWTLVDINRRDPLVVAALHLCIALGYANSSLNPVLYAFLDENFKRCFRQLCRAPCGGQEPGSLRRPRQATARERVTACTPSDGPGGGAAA
ROCK1: Rho-associated protein kinase 1 (ROCK1, Homo sapiens, UniProt Q13464)
Sequence of UniProt Q8BLF1 (whole entry, looked up): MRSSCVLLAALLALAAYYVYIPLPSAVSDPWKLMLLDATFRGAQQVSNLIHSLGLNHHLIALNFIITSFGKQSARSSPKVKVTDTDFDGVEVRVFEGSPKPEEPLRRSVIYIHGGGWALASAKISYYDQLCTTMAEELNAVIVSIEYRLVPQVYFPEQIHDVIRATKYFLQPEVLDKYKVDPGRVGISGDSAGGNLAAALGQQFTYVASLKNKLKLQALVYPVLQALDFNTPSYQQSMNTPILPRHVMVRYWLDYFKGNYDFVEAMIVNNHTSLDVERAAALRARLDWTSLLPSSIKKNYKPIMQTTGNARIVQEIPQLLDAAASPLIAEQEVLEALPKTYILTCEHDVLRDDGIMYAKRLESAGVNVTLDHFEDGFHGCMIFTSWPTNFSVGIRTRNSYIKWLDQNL
Sequence of UniProt D0VWV4 (whole entry, looked up): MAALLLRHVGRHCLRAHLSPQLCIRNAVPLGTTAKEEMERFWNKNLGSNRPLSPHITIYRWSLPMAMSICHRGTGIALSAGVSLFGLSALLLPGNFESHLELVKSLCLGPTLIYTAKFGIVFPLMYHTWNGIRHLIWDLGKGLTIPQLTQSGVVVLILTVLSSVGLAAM
Sequence of UniProt Q9Y2J8 (whole entry, looked up): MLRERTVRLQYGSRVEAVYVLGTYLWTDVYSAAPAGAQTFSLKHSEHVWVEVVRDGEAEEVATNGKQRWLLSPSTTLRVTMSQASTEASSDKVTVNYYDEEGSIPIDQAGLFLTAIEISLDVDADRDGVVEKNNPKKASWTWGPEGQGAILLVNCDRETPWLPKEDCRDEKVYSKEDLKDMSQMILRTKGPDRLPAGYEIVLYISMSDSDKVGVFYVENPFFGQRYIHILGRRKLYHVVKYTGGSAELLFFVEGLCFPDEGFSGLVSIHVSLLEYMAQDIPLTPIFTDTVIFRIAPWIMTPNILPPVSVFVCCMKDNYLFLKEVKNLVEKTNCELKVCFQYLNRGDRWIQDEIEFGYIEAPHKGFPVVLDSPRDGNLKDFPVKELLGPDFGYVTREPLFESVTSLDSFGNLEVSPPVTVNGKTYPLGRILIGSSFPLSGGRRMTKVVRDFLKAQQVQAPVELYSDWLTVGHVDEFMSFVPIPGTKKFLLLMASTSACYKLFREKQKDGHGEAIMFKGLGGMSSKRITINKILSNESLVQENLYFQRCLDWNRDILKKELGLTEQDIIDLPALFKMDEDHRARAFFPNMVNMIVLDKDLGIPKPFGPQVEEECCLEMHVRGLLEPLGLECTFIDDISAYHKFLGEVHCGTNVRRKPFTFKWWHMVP
Sequence of UniProt Q007T0 (whole entry, looked up): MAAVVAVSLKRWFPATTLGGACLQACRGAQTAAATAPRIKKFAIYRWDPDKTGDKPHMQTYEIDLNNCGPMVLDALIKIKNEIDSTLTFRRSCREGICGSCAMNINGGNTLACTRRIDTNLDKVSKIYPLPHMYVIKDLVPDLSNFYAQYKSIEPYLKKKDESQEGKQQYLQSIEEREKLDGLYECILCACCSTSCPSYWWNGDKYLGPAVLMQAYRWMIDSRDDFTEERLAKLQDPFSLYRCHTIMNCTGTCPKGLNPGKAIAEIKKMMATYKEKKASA
Sequence of UniProt Q13464 (whole entry, looked up): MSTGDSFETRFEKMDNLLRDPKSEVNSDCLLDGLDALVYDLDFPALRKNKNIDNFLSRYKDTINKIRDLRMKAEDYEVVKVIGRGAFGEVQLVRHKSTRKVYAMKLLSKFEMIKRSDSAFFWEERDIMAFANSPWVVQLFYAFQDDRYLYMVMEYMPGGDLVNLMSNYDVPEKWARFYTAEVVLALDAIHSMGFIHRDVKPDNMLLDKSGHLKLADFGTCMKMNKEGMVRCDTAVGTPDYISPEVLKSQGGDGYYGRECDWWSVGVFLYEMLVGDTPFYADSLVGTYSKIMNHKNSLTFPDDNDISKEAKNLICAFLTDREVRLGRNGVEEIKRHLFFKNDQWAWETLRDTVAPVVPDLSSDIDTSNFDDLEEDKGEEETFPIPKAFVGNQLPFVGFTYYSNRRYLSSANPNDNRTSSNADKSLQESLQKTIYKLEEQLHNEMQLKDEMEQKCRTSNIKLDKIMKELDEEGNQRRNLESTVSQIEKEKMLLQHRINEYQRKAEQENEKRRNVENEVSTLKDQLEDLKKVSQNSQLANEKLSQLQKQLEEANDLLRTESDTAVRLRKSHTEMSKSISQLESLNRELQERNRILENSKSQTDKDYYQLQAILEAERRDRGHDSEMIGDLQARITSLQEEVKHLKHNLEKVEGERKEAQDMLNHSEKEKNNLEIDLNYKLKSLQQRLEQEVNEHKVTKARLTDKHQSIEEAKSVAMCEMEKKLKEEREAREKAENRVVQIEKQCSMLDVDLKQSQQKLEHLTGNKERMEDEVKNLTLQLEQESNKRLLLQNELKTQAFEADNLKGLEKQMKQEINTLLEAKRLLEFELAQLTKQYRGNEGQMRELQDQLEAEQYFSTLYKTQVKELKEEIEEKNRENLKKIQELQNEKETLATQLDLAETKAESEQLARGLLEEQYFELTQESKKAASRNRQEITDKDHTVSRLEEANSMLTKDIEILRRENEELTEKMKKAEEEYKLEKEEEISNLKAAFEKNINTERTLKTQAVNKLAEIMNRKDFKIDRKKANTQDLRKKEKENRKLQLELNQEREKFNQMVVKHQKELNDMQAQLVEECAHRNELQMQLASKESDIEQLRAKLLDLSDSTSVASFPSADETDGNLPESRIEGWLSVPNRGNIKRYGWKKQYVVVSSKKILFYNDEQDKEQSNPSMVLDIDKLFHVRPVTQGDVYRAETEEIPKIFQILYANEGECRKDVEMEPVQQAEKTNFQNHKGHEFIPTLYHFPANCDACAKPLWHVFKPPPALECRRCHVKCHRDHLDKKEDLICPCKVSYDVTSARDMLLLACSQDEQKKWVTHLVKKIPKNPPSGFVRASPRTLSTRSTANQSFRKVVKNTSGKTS
Sequence of UniProt A5GZW8 (whole entry, looked up): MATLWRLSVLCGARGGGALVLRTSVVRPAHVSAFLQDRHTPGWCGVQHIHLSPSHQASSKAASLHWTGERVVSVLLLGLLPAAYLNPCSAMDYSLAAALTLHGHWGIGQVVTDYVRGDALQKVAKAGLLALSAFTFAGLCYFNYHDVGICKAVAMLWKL
Sequence of UniProt Q9HBH9 (whole entry, looked up): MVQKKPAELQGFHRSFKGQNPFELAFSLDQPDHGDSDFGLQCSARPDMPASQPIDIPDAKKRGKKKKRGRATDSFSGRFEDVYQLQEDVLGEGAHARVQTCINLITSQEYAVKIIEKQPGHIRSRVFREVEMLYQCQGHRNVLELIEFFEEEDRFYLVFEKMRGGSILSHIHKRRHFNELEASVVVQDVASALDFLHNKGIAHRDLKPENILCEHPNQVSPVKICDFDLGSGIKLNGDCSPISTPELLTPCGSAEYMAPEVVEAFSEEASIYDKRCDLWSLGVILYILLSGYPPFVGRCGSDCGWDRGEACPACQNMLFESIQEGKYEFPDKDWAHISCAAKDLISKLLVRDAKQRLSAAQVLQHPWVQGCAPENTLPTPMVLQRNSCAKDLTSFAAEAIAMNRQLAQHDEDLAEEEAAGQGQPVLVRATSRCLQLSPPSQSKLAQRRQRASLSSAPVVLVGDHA
Sequence of UniProt Q8IWQ3 (whole entry, looked up): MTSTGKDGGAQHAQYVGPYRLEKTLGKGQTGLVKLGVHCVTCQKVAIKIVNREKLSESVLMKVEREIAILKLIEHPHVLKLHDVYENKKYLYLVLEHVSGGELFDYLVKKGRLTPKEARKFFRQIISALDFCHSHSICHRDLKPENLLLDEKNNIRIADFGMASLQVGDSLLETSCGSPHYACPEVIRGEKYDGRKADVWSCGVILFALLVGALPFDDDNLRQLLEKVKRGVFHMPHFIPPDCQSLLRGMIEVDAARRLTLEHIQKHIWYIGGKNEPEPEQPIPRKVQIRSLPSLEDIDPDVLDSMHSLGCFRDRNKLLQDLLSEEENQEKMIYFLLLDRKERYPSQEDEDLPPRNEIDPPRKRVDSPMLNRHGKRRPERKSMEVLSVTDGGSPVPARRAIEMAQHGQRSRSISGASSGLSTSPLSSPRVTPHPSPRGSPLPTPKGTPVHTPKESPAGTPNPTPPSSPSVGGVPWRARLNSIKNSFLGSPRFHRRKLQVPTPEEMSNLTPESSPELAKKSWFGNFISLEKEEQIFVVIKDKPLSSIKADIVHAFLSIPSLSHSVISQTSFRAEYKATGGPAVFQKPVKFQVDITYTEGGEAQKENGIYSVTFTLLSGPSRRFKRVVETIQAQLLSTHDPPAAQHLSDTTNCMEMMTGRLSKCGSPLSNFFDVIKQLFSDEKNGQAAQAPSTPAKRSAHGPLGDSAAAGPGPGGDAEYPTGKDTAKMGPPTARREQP
Sequence of UniProt P0A988 (whole entry, unmodified, looked up): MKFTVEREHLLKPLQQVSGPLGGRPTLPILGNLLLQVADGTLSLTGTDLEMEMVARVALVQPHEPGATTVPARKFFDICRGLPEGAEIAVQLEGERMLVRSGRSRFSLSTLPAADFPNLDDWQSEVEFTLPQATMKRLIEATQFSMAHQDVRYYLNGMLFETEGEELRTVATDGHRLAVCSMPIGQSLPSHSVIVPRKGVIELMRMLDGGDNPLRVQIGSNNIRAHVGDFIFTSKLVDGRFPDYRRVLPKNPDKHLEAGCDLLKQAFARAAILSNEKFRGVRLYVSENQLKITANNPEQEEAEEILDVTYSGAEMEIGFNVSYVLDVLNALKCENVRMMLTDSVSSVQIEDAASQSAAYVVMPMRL

| Structure (SMILES) | target or system | assay | test system | setting | how to read | quantity | value |
| --- | --- | --- | --- | --- | --- | --- | --- |
| Cc1cc(-c2ccc3ccccc3c2)nnc1NCCN1CCN(C)CC1 | HRH1 (Homo sapiens, UniProt P35367) | antagonist |  | concentration not given |  | antagonist activity | negative |
| C[C@@H](O)[C@@H]1CN([C@@H](CC2CCCCC2)CN2CCC[C@H]2CN2CCNC[C@@H]2Cc2ccc3ccccc3c2)CCN1CCC12CC3CC(CC(C3)C1)C2 | Oprd1 | radioligand binding | rat brain membranes | 500 nM, pH 7.5, 25 °C, added: 2 nM [3H]DPDPE |  | remaining binding | 90.4% |
| COc1c(N2CC3CCCNC3C2)c(F)cc2c(=O)c(C(=O)OCc3ccc([N+](=O)[O-])o3)cn(C3CC3)c12 (stereo not shown) | nfsB (Escherichia coli K-12, UniProt P38489) | substrate |  | added: NADH 100 µM |  | kcat | 36.6 min⁻¹ |
| C[C@H](NCc1ccc(-c2ccc(C(F)(F)F)cc2)cc1)C(N)=O | NMDA receptor agonist site, rat | binding, radioligand binding | biochemical | 1 µM, added: [3H]CGP-39653 2.0 nM |  | inhibition | 2% |
| CC[C@@H](C)[C@@H]1CN([C@H](Cc2ccc3ccccc3c2)CN2CCC[C@H]2CN2CCNC[C@@H]2Cc2ccc3ccccc3c2)CCN1CCCC1CCCC1 | Oprd1 | radioligand binding | rat brain membranes | 500 nM, pH 7.5, 25 °C, added: 2 nM [3H]DPDPE |  | remaining binding | 85.6% |
| CC(=O)N[C@H](C(=O)N[C@@H](CCCNC(=N)N)C(=O)NCC(=O)N[C@@H](CO)C(=O)N[C@@H](CS)C(=O)N[C@@H](CCCNC(=N)N)C(=O)N[C@@H](CCCCN)C(=O)N[C@@H](CCCNC(=N)N)C(=O)N[C@@H](CC(N)=O)C(=O)N[C@@H](CCCNC(=N)N)C(=O)N[C@@H](CO)C(=O)N1CCC[C@H]1C(=O)N[C@@H](CCC(=O)O)C(=O)N[C@@H](CCCNC(=N)N)C(N)=O)[C@@H](C)O | WDR5 (Homo sapiens, UniProt P61964) | binding, competitor of LANA peptide, ITC |  | pH 7.0, 20 °C, WIN motif peptide |  | ΔG | -7.6 kcal/mol |
| O=C1NC(=O)c2c1c1cc(F)c[n+]3c1c1c2c2cc(O)ccc2[n]1[Ru-4]312([N]=C=S)[S+]3CC[S+]1CC[S+]2CC3 (stereo not shown) | BRSK2 (Homo sapiens, UniProt Q8IWQ3) | enzyme activity |  | 100 nM, human enzyme, added: 10 µM ATP | relative to: untreated | remaining activity | 32% |
| CCN(N=Cc1cnc2ccc(Br)cn12)S(=O)(=O)c1cc([N+](=O)[O-])ccc1C | PIK3CB (Homo sapiens, UniProt P42338) | luminescence |  |  | relative to: wild-type p110β | IC50 fold change | 1 |
| CCCCC[C@@H]1OC(=O)[C@@H](C)N(C)C(=O)[C@H](CCCCC)OC(=O)[C@@H](C)N(C)C(=O)[C@H](CCCCC)OC(=O)[C@@H](C)N(C)C(=O)[C@H](CCCCC)OC(=O)[C@@H](C)N(C)C1=O | ryanodine receptor 2 (Sus scrofa, UniProt A0A5G2R1W3) | single-channel gating, planar lipid bilayer |  | 3 µM, pCa 7, porcine |  | closed dwell time constant T1 | 11.1 ± 4.7 ms |
| CC#CC(=O)NC[C@H](NC(=O)[C@H](CC1CCCCC1)NC(=O)[C@H](CCC(N)=O)NC(C)=O)C(=O)N[C@@H](CC(C)C)C(=O)N[C@@H](Cc1ccccc1)C(=O)O | Beta sliding clamp (Escherichia coli, UniProt P0A988, H175G) | isothermal titration calorimetry |  | 25 °C |  | ΔG | -9.7 kcal/mol |
| CCn1nc(Cl)c2c1-c1cnc(N)c(c1)O[C@H](C)c1cc(F)ccc1-c1nn(C)cc1C2 | TNK2 (Homo sapiens, UniProt Q07912) | kinase activity, inhibitor |  |  | relative to: IC50 TNK2 over IC50 ALK | selectivity ratio | 60 fold |
| CCCN(Cc1nnc(-c2ccco2)o1)C(=O)C1CCCN(C(=O)c2ccc(Cl)cc2)C1 (stereo not shown) | PFF0160c (Plasmodium falciparum, UniProt Q08210, E182D) | enzyme activity, DCIP colorimetric |  |  | relative to: E182D mutant over wild type | IC50 ratio | 2 |
| CS(C)(=O)=Nc1ccc(-c2ccc(-c3nc4cc(O[C@@H]5CO[C@H]6[C@@H]5OC[C@H]6O)[nH]c4cc3F)cc2)cc1 | SYK (Homo sapiens, UniProt P43405) | enzyme activity, inhibitor |  | 10 µM |  | inhibition | -24% |
| CCO[C@H]1[C@H](O)[C@@H](N)[C@@H](O[C@H]2[C@H](O[C@@H]3O[C@H](CO)[C@@H](O[C@H]4O[C@@H](CN)[C@@H](O)[C@H](O)[C@H]4N)[C@H]3O)[C@@H](O)[C@H](N)C[C@@H]2N)O[C@@H]1CO | LCK (Homo sapiens, UniProt P06239) | cell-free assay |  | 10 µM |  | remaining signal | 35% |
| N[C@H](C(=O)N1CCCC1)C1CCN(c2nccc3c(-c4ncc(Cl)cc4Cl)cccc23)CC1 | PADI2 (Homo sapiens, UniProt Q9Y2J8) | thermal shift |  | 0.00953 µM |  | melting temperature | 58.1 °C and 58.7 °C |
| CCCc1cc2cc(-n3cc(C)c4c3CC(C)(C)CC4=O)cc(N3CCC(O)CC3)c2c(=O)[nH]1 | HSP90AB1 (Homo sapiens, UniProt P08238) | fluorescence polarization |  |  | relative to: apparent KD Hsp90α over apparent KD HSP90AB1 | selectivity ratio | > 174 fold |
| [CH3][Ti+2][O]C(=O)c1ccc([S][Au][PH](c2ccccc2)(c2ccccc2)c2ccccc2)cc1.c1cc[cH-]c1.c1cc[cH-]c1 | RAF1 | kinase activity, HotSpot kinase |  | 1 µM, added: ATP 10 µM |  | remaining activity | 109% and 110% |
| N[C@@H](Cc1ccccc1)P(=O)(O)O | PAL1 (Petroselinum crispum, UniProt P24481, Y110F) | binding, ITC |  |  |  | ΔG | -7 kcal/mol |
| CC(C)[C@H]1NC(=O)C[C@H]2/C=C/CCSSC[C@@H](NC1=O)C(=O)N[C@H](Cc1cccc3ccccc13)C(=O)NCC(=O)O2 | ROCK1 | enzyme activity, inhibitor |  | 10 µM |  | inhibition | -5% |
| CC(C)CC(O)(CC(C)C)c1cn(C(=O)N2CCCC2)nn1 | Neutral cholesterol ester hydrolase 1 (Mus musculus, UniProt Q8BLF1) | probe labelling, inhibitor, measured: Aadacl1 | mouse, brain | i.p., 0.8 mg/kg, 4 h, single peptide | relative to: treated over vehicle mice, lower = stronger inhibition | activity ratio-of-ratios | 1.1 and 1.24 and 1.57 and 0.99 and 1.07 and 1.09 |
| CCNC(=S)NN=Cc1c2ccccc2cc2ccccc12.Cc1ccc(C(C)C)cc1.[Cl-].[Cl-].[Ru+2] | Albumin (ALB, Homo sapiens, UniProt P02768) | fluorescence titration, Scatchard |  | 308 K |  | binding constant | 13.8 ± 0.02 10⁴ M⁻¹ |
| CON(C(=O)c1cn(C)nc1C(F)F)C(C)Cc1c(Cl)cc(Cl)cc1Cl (stereo not shown) | SDHD/SDHC/SDHB (Sus scrofa, UniProt A5GZW8+D0VWV4+Q007T0) | enzyme activity, inhibitor, DCIP reduction | pig | 0.6 µM, added: DCIP 5 µM |  | reaction velocity | 0.00104 µM/s and 0.001 µM/s |
| CCOC(=O)[C@@H]1Cc2c(cc([N+](=O)[O-])cc2[N+](=O)[O-])[C@H](O)[C@]12C(=O)Nc1ccc(Br)cc12 | MKNK2 (Homo sapiens, UniProt Q9HBH9) | binding, competition with immobilised ligand |  | 0.1 µM |  | remaining binding | 100% |
| CC(C)C[C@H](NC(=O)[C@H](CCC(=O)O)NC(=O)[C@@H](N)Cc1ccccc1)C(=O)N[C@@H](CCC(=O)O)C(=O)N[C@@H](CCCNC(=N)N)C(=O)N[C@@H](CCCNC(=N)N)C(=O)N[C@@H](Cc1ccccc1)C(=O)N[C@@H](CCCCN)C(=O)N[C@@H](CCC(N)=O)C(=O)N[C@@H](CCC(N)=O)C(=O)O | NKX2-3 | ChIP-qPCR, measured: PDE1C promoter | TPCs | concentration not given |  | promoter binding | 0.0285 % input |
| O=C1NC2(CC2)COc2ncc(F)cc2[C@H]2COCCN2c2ccn3ncc1c3n2 |  |  | Sprague-Dawley rat, female, brain | oral, 2.5 mg/kg/day, 4 weeks, end of treatment |  | organ-to-body weight ratio | 0.575 ± 0.046% |
| CCc1nnc(-c2c(OC)cc(-c3cnc4cc(-c5cnn(C)c5)ccn34)cc2OC)o1 | SLC6A4 (Homo sapiens, UniProt P31645) | antagonist radioligand, radioligand binding |  | 10 µM, SafetyScreen44 5-HT transporter replicate 2 | lower = stronger displacement | remaining binding | 110% |
| Cc1ccc(N2CC3CCC(C2)N3C)cc1C(=O)N[C@H](C)c1cc(-c2cnn(C)c2)nc2ccccc12 | USP15 (Homo sapiens, UniProt Q9Y4E8) | enzyme activity |  | 30 µM, 0.5 h |  | remaining activity | 102% |
| CN(C)[C@H]1C[C@@]23CC[C@@]4(O2)C(=CC[C@]2(C)[C@@H](c5ccc6ccncc6c5)CC[C@H]24)C=C3[C@@H](O)[C@@H]1O | ROCK1 | probe labelling, inhibitor, KiNativ ATP probe MS | native lysate | 1 µM |  | inhibition | 19% |

Some of these lines once more:
| Structure (SMILES) | target or system | assay | test system | setting | how to read | quantity | value |
| --- | --- | --- | --- | --- | --- | --- | --- |
| C[C@@H](O)[C@@H]1CN([C@@H](CC2CCCCC2)CN2CCC[C@H]2CN2CCNC[C@@H]2Cc2ccc3ccccc3c2)CCN1CCC12CC3CC(CC(C3)C1)C2 | Oprd1 | radioligand binding | rat brain membranes | 500 nM, pH 7.5, 25 °C, added: 2 nM [3H]DPDPE |  | remaining binding | 90.4% |
| COc1c(N2CC3CCCNC3C2)c(F)cc2c(=O)c(C(=O)OCc3ccc([N+](=O)[O-])o3)cn(C3CC3)c12 (stereo not shown) | nfsB (Escherichia coli K-12, UniProt P38489) | substrate |  | added: NADH 100 µM |  | kcat | 36.6 min⁻¹ |
| C[C@H](NCc1ccc(-c2ccc(C(F)(F)F)cc2)cc1)C(N)=O | NMDA receptor agonist site, rat | binding, radioligand binding | biochemical | 1 µM, added: [3H]CGP-39653 2.0 nM |  | inhibition | 2% |
| CC[C@@H](C)[C@@H]1CN([C@H](Cc2ccc3ccccc3c2)CN2CCC[C@H]2CN2CCNC[C@@H]2Cc2ccc3ccccc3c2)CCN1CCCC1CCCC1 | Oprd1 | radioligand binding | rat brain membranes | 500 nM, pH 7.5, 25 °C, added: 2 nM [3H]DPDPE |  | remaining binding | 85.6% |
